Published values from different studies.
Each line is one published result; not all experiments were run side by side. Values joined by “and” are separate records of one study, mostly repeats; a detail may differ. Numbers after ± are the reported error.
HTR2B: 5-hydroxytryptamine receptor 2B (HTR2B, Homo sapiens, UniProt P41595)
Rac GTPase-activating protein 1: Rac GTPase-activating protein 1 (Homo sapiens, UniProt Q9H0H5)
ELANE: Neutrophil elastase (ELANE, Homo sapiens, UniProt P08246)
USP14: Ubiquitin carboxyl-terminal hydrolase 14 (USP14, Homo sapiens, UniProt P54578)
F12: Coagulation factor XII (F12, Homo sapiens, UniProt P00748)
HDAC7: Histone deacetylase 7 (HDAC7, Homo sapiens, UniProt Q8WUI4)
Neuronal acetylcholine receptor; alpha3/beta4: Neuronal acetylcholine receptor; alpha3/beta4 (Homo sapiens, UniProt P30926+P32297)
GABBR1: Gamma-aminobutyric acid type B receptor subunit 1 (GABBR1, Homo sapiens, UniProt Q9UBS5)

SMILES | target or system | assay | system | setting | endpoint | result
C#CC[C@]1(O)C[C@H](C)N2CCc3cc(OCc4cc(C)cc(C)c4)c(OCc4cc(C)cc(C)c4)cc3[C@@H]2C1 | Rab GDP dissociation inhibitor beta, with Rab1A (Homo sapiens, UniProt P50395) | GDI2-Rab1A interaction, inhibitor, NanoLuc complementation | – | 6.25 µM | inhibition | 75.1%
O=C1c2sc(-c3ccc(N4CCC(F)C4)nc3F)nc2CCN1c1cccnc1 (stereo not drawn) | HTR2B | ligand displacement, radioligand | – | 1 µM | inhibition | -7%
Cc1ccc(C(C2=C(O)CC(C)(C)CC2=O)C2=C(O)CC(C)(C)CC2=O)o1 | Rac GTPase-activating protein 1 | GAP activity, malachite green phosphate | – | concentration not given, orthogonal retest | inhibition | 74.4%
CNC(=O)C[C@H](Cc1ccc(C#N)cc1)NC(=O)c1cc(-c2ccc(CN[C@H](C)c3ccc(C)cc3)o2)ccc1Cl | P2Y purinoceptor 2 (P2RY2, Homo sapiens, UniProt P41231) | calcium signal, antagonist | – | 10 µM | inhibition | 0%
CC(C)[C@@H](NC(=O)C(=O)O)C(=O)O | KDM4E (Homo sapiens, UniProt B2RXH2) | H3K9me3 demethylation, FDH-coupled | – | concentration not given | inhibition | 14%
CCn1cc(C(=O)O)c(=O)c2c(N)c(F)c(NC3CCCCC3)cc21 | 5'-AMP-activated protein kinase catalytic subunit alpha-1, with beta2, gamma1 (PRKAA1, Homo sapiens, UniProt Q13131) | kinase activity | – | 0.1 µM, together with: ATP at Km | inhibition | -4%
CC(C)NC(=O)[C@H](CCc1ccccc1)NC(=O)[C@H](CC(=O)NCC(C)(C)C)NC(=O)CCc1ccccc1 | ELANE | enzyme activity, inhibitor | – | 100 µM | inhibition | -10%
Cc1cccc(O[C@H]2CCC[C@@H](C(C)CNCc3ccncc3)C2)c1 (relative stereo) | PRKCG (Homo sapiens, UniProt P05129) | enzyme activity | – | 10 µM | inhibition | -9%
C=CC(=O)Nc1cccc(-c2cnc3[nH]cc(C(=O)NC(C)(C)C)c3n2)c1 | PI4KB (Homo sapiens, UniProt Q9UBF8) | enzyme activity, inhibitor | – | 0.1 µM | inhibition | 3%
O=C1NNC(c2ccccc2)=N/C1=C\c1ccc(Cl)cc1 | USP14 | enzyme activity, inhibitor | – | 17 µM | inhibition | 69%
C[C@@H](O)[C@H](NC(=O)c1ccc(OCc2ccccc2)cc1)C(=O)N[C@@H](CCc1ccccc1)C(=O)NCc1ccccc1Cl | F12 | enzyme activity, inhibitor | – | 100 µM | inhibition | 36%
O=C1CC(=O)N(c2ccccc2)N1c1ccccc1 | Rac GTPase-activating protein 1 | GAP activity, malachite green phosphate | – | concentration not given, orthogonal retest | inhibition | 47.5%
N=C(N)NCCCC(NC(=O)C(CC(=O)NO)Cc1ccc2ccccc2c1)C(=O)NC(Cc1c[nH]c2ccccc12)C(=O)NC(CCC(=O)O)C(N)=O (stereo not drawn) | MMP9 (Homo sapiens, UniProt P14780) | – | – | 1 µM | inhibition | 3%
c1ccc(CSc2nnc(-c3ccco3)c(-c3ccco3)n2)cc1 | Rac GTPase-activating protein 1 | enzyme activity, inhibitor, ADP detection | – | 10 µM | inhibition | 51.8%
COc1nncc(-c2cnnc(SC)n2)n1 | USP14 | enzyme activity, inhibitor | – | 17 µM | inhibition | 38%
CC(C)(C)c1ccccc1OS(=O)(=O)Oc1cccc(C(=O)NO)c1 | HDAC7 | enzyme activity, inhibitor, fluorescence | – | 10 µM | inhibition | 16%
O=C(O)C1Nc2ccc(Cl)cc2C2C=CCC12 (stereo not drawn) | Rac GTPase-activating protein 1 | enzyme activity, inhibitor, ADP detection | – | 20 µM | inhibition | 45%
O=C(N/N=C/c1ccc(C[n+]2ccccc2)cc1)c1cncc(C(=O)N/N=C/c2ccc(C[n+]3ccccc3)cc2)n1 | hp2 hairpin duplex DNA | FRET melting | – | 1 µM, together with: ds26 10 µM | ΔTm | 1 ± 0.2 °C
O=C1CO[C@H](CNC(=O)C2(c3ccc(Cl)cc3)CC2)CN1C1Cc2ccccc2C1 | CCR4 (Homo sapiens, UniProt P51679) | β-arrestin recruitment, antagonist | – | 1 µM | inhibition | -2%
CCOC(=O)N1CCN(c2cc(NCCCC(=O)O)c3c4c(onc24)-c2ccccc2C3=O)CC1 | USP14 | enzyme activity, inhibitor | – | 17 µM | inhibition | 68%
C=CC(=O)N1Cc2nc(-c3cc(-c4cc(Cl)cnc4Cl)c(F)cc3F)n(-c3ccncn3)c2C1 | PIP5K1B (Homo sapiens, UniProt O14986) | cell-free assay, inhibitor | – | 1 µM | inhibition | 16%
O=c1ccsn1Cc1ccccc1 | Rac GTPase-activating protein 1 | enzyme activity, inhibitor, ADP detection | – | 10 µM | inhibition | 91.9%
CC(=O)C12NC(C)(C)CC1(C)C(=O)C1=C2c2c(c3c4n2C(C)(C)CC2=C4C4(CC(C)(C)NC(C)(C4)C2=O)CC3(C)C)C(=O)C(C)(C)N1 (single isomer, unassigned; (-)) | Neuronal acetylcholine receptor; alpha3/beta4 | ion current, patch clamp | HEK-293T | 10 µM | inhibition | 29.6%
C[C@H](NC(=O)[C@H](CC(=O)NCC(C)(C)C)NC(=O)C(=O)c1c[nH]c2ccccc12)C(=O)NCc1ccc(F)cc1F | F12 | enzyme activity, inhibitor | – | 100 µM | inhibition | 40%
O=S(=O)(c1ccc(-c2ccc3ncnc(Nc4ccc(OCc5ccccc5F)c(Cl)c4)c3c2)cc1)N1CCOCC1 | Leishmania major | intracellular amastigote growth, luciferase | RAW264.7 macrophages | – | EC50 | > 15 µM
O=C(O)C(=CC(=O)c1ccccc1)Nc1ccccc1 | USP14 | enzyme activity, inhibitor | – | 17 µM | inhibition | 24%

SMILES | target or system | assay | system | setting | endpoint | result
Cc1ccc(CNC(=O)[C@H](CCc2ccccc2)NC(=O)[C@H](CC(=O)NCC(C)(C)C)NC(=O)c2ccc(OCc3ccccc3)cc2)cc1 | ELANE | enzyme activity, inhibitor | – | 100 µM | inhibition | -6%
Cc1cc(Cl)cc(-c2ccnc3cc(CN4C(=O)C5C(C4=O)C5(C)C)sc23)c1C[C@@H]1CNCCO1 (stereo partly drawn) | USP7 (Homo sapiens, UniProt Q93009, V517F) | enzyme activity, inhibitor | – | 5 µM | inhibition | 104% and 108%
COCC(=O)N1CCc2cc(-c3csc(NC(=O)c4cc(OC)cc(OC)c4)n3)ccc21 | P2X receptor, rabbit | radioligand binding | – | 10 µM | inhibition | 7%
CCC(=O)N(C)c1ccc(Cl)c(Cl)c1 | AVPR1A (Homo sapiens, UniProt P37288) | ligand displacement, radioligand | – | 10 µM | inhibition | < 10%
CN1CCN(Cc2ccc(-c3ccc(CO[C@H]4CCC[C@@H]4NC(=O)c4cc(-c5cnn(C)c5)cnc4N)cc3)cc2)CC1 | PI4K2A (Homo sapiens, UniProt Q9BTU6) | enzyme activity, inhibitor | – | 0.1 µM | inhibition | 4%
C/C=C/C(=O)Nc1ccc2nc(NCCCCCN(C)C)nc(NCCCCCCN(C)C)c2c1 | SMYD3 (Homo sapiens, UniProt Q9H7B4) | enzyme activity, inhibitor, radiometric | – | 50 µM | inhibition | 2%
CSC1=NSC2=NC(=O)C(=Cc3ccc(O)c(O)c3)C(=N)N12 | USP14 | enzyme activity, inhibitor | – | 17 µM | inhibition | 6%
c1ccc(OC[C@H]2CN(CCN3CCc4ccccc43)CCO2)nc1 | HTR2B | radioligand binding | – | concentration not given, together with: [3H]LSD | inhibition | 75.6%
Cc1ccc(CNC(=O)C(CCc2ccccc2)NC(=O)C(NC(=O)Cc2cccc(Oc3ccccc3)c2)C(C)O)cc1 (stereo not drawn) | ELANE | enzyme activity, inhibitor | – | 100 µM | inhibition | -3%
Cn1ccc2cc(-n3c(=O)[nH]c4sc5c(c4c3=O)CCCC5)ccc21 | Neuronal acetylcholine receptor; alpha3/beta4 | cell-free assay, radioligand | – | 10 µM | inhibition | 3%
Cc1ccc(C)n1-c1ccc(OCC(=O)O)cc1 | Rac GTPase-activating protein 1 | GAP activity, malachite green phosphate | – | concentration not given, orthogonal retest | inhibition | 75.3%
CC(C)Cn1c(SCC(=O)N2CCc3ccccc3C2)nc2cc(Cl)ccc2c1=O | HTR7 (Homo sapiens, UniProt P34969) | ligand displacement, radioligand | – | 10 µM | inhibition | 6%
C[Si]1(C[C@H](CN)CC(=O)O)CCCC1 | GABBR1 | binding, radioligand binding | – | 70 µM, together with: [3H]CGP-54626 | inhibition | 8%
CCc1nc2ccc(Cl)cn2c1C(=O)NCc1ccc2oc(-c3ccc(OC(F)(F)F)cc3)nc2c1 | Cytochrome b, in bc1 complex (COB, Candida albicans, UniProt P0C8L0) | cytochrome c reduction | – | 10 and 1 µM | inhibition | no inhibition
CC[C@H](C)[C@@H]1NC(=O)[C@H](Cc2ccccc2C(F)(F)F)NC(=O)CCSCc2cccc(n2)CSCCCNC(=O)[C@H](CCCCCC(=O)NO)NC1=O | HDAC7 | enzyme activity, inhibitor, fluorogenic | – | 30 µM | inhibition | 60%
CC(C)(C)CNC(=O)C[C@H](NC(=O)CCc1ccccc1)C(=O)N[C@@H](Cc1cccnc1)C(=O)NCc1ccccc1Cl | F12 | enzyme activity, inhibitor | – | 100 µM | inhibition | 33%
O=S(=O)(c1ccc(-c2ccc3ncnc(Nc4ccc(OCc5cccc(F)c5)c(Cl)c4)c3c2)cc1)N1CCCCC1 | Leishmania major | intracellular amastigote growth, luciferase | RAW264.7 macrophages | – | EC50 | > 15 µM
Nc1ccc2c(c1)OC1(CCCCC1)O2 | Rac GTPase-activating protein 1 | GAP activity, malachite green phosphate | – | concentration not given, orthogonal retest | inhibition | 30.1%
Cc1ccc(C=C2SC(=O)NC2=S)o1 | USP14 | enzyme activity, inhibitor | – | 17 µM | inhibition | 73%
C[Si](C)(C)C[C@H](CN)CC(=O)O | GABBR1 | binding, radioligand binding | – | 250 µM, together with: [3H]CGP-54626 | inhibition | -9%
Clc1ccc(NCc2ccc(Br)cc2)cc1 | Rac GTPase-activating protein 1 | GAP activity, malachite green phosphate | – | concentration not given, orthogonal retest | inhibition | 74.8%
O=c1c(=NO)c(=NO)c(=O)c2ccccc12 | USP14 | enzyme activity, inhibitor | – | 17 µM | inhibition | 74%
O=C(Nc1ccc(C(F)F)cc1)[C@H](CC1CCCCC1)Nc1nn2c(=O)ccnc2s1 | Serine/threonine-protein phosphatase 5 (Homo sapiens, UniProt P53041) | enzyme activity, inhibitor | – | 10 µM | inhibition | -6%
CC(C)C[C@H](NC(=O)[C@@H](CCCCNC(=O)[C@@H](Cc1ccccc1)NC(=O)CCCCCNC(=O)CN1CCN(CC(=O)O)CCN(CC(=O)O)CCN(CC(=O)O)CC1)NC(=O)[C@H](Cc1ccc(O)cc1)NC(=O)[C@H](CO)NC(=O)[C@H](Cc1c[nH]c2ccccc12)NC(=O)[C@H](Cc1c[nH]cn1)NC(=O)[C@@H]1CCC(=O)N1)C(=O)N[C@@H](CCCNC(=N)N)C(=O)N1CCC[C@H]1C(=O)NCC(N)=O [indium-111 labelled] | – | – | female athymic nude mice, spleen | intravenous, 0.037 MBq, 1 h | tissue uptake | 0.21 ± 0.1 %ID/g
CC(C)N1CCCc2cc(CN)ccc21 | USP14 | enzyme activity, inhibitor | – | 17 µM | inhibition | 57%

For quick reference, copied from above:
SMILES | target or system | assay | system | setting | endpoint | result
O=C(Nc1ccc(C(F)F)cc1)[C@H](CC1CCCCC1)Nc1nn2c(=O)ccnc2s1 | Serine/threonine-protein phosphatase 5 (Homo sapiens, UniProt P53041) | enzyme activity, inhibitor | – | 10 µM | inhibition | -6%
CC(C)C[C@H](NC(=O)[C@@H](CCCCNC(=O)[C@@H](Cc1ccccc1)NC(=O)CCCCCNC(=O)CN1CCN(CC(=O)O)CCN(CC(=O)O)CCN(CC(=O)O)CC1)NC(=O)[C@H](Cc1ccc(O)cc1)NC(=O)[C@H](CO)NC(=O)[C@H](Cc1c[nH]c2ccccc12)NC(=O)[C@H](Cc1c[nH]cn1)NC(=O)[C@@H]1CCC(=O)N1)C(=O)N[C@@H](CCCNC(=N)N)C(=O)N1CCC[C@H]1C(=O)NCC(N)=O [indium-111 labelled] | – | – | female athymic nude mice, spleen | intravenous, 0.037 MBq, 1 h | tissue uptake | 0.21 ± 0.1 %ID/g
CC(C)N1CCCc2cc(CN)ccc21 | USP14 | enzyme activity, inhibitor | – | 17 µM | inhibition | 57%
